Results from different studies.
Each line is one published result; not all experiments were run side by side. ± marks the error that the study gave.
Target: Protein deacetylase HDAC6 (HDAC6, Homo sapiens, UniProt Q9UBN7)
Action: inhibitor
Sequence (Q9UBN7 1-1215, as in one of the studies): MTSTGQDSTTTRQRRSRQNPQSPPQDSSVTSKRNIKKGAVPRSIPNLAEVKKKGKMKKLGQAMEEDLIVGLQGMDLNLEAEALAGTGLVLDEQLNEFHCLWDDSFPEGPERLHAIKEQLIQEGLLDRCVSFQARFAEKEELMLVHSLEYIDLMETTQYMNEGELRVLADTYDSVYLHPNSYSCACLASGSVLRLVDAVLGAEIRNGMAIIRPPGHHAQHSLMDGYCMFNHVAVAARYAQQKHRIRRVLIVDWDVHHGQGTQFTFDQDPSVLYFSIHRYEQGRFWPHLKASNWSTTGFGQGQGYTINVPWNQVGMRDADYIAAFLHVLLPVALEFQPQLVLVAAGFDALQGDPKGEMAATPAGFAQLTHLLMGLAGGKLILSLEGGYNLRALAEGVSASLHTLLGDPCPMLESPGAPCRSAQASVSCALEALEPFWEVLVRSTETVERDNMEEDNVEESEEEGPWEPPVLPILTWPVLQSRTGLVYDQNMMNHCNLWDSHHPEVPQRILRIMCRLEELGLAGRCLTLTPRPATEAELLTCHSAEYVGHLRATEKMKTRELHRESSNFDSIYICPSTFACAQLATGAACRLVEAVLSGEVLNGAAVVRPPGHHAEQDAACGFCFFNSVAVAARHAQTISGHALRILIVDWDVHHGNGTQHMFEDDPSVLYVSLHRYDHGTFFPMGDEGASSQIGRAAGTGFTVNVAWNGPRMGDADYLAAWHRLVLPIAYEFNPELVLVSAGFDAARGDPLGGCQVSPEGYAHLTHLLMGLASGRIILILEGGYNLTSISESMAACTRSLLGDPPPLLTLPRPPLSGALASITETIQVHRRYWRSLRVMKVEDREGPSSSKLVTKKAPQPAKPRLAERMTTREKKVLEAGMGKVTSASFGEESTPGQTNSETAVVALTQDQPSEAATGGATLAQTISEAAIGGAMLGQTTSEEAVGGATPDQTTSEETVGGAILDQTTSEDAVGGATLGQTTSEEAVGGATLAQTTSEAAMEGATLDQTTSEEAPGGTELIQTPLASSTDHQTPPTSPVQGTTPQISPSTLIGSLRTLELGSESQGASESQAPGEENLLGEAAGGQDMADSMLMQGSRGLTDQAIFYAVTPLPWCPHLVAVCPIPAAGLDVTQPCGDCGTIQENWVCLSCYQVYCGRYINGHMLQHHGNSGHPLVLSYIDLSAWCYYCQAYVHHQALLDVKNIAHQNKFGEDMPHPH

SMILES	effect on	technique	notes	IC50
Cc1cc(C)nc(SCC(=O)Nc2ncc(Cc3cccc(OCc4cn(-c5ccc(Cl)cc5)nn4)c3)s2)n1	enzyme activity	fluorescence	–	> 100000 nM
O=C(CCCCCCC(=O)Nc1ccccc1-[c-]1cccc1)NO.[Fe+2].c1cc[cH-]c1	enzyme activity	fluorescence	–	0.3 nM
O=C(/C=C/c1ccccc1Cl)NO	enzyme activity	fluorescence	–	95 nM
O=C(/C=C/c1ccc2c(c1)CCN(Cc1ccccc1)C2=O)NO	enzyme activity	–	–	2140 nM
O=C(/C=C/c1ccc2ccccc2c1)NO	enzyme activity	fluorescence	–	225 nM
O=C(/C=C/c1ccc(CNC(=O)Cc2ccccc2)cc1)NO	enzyme activity	fluorescence	–	95 nM
Cc1cc(C)nc(SCC(=O)Nc2ncc(Cc3cccc4ccccc34)s2)n1	enzyme activity	fluorescence	–	> 100000 nM
N/C(=N\O)c1ccc2c(c1)Oc1ccccc1N2Cc1ccc(C(=O)NO)cc1	enzyme activity	–	–	3 nM
CC(CCC(=O)NCC(=O)NCc1ccc(C(=O)NO)cc1)C1CCC2C3C(O)CC4CC(O)CCC4(C)C3CCC12C (stereo not shown)	enzyme activity	fluorescence	–	56.1 nM
O=C(CCCC(=O)Nc1ccc(-[c-]2cccc2)cc1)NO.[Fe+2].c1cc[cH-]c1	enzyme activity	fluorescence	–	1400 nM
Cc1cc(C)nc(SCC(=O)Nc2ncc(Cc3cccc(OCc4cn(Cc5ccc(C#N)cc5)nn4)c3)s2)n1	enzyme activity	fluorescence	–	> 100000 nM
O=C(O)c1ccc(Cn2sc3ccccc3c2=O)cc1	enzyme activity	–	–	> 10000 nM
COCCn1cc2c(n1)CN(C(=O)Nc1nc(-c3ccc(F)cc3F)ccc1N)C2	deacetylase activity	recombinant enzyme	–	> 30000 nM
O=C(CCCCCCNc1ccc(C(=O)Nc2ccc(Cl)c(NC(=O)c3cccc(Cl)c3)c2)cn1)NO	enzyme activity	fluorescence	lysate	680 nM
CC(CCC(=O)NCCCCCC(=O)NO)C1CCC2C3C(O)CC4CC(O)CCC4(C)C3CCC12C (stereo not shown)	enzyme activity	fluorescence	–	82.1 nM
Cn1cc2c(n1)CN(C(=O)Nc1nc(-c3ccc(F)cc3)ccc1N)C2	deacetylase activity	recombinant enzyme	–	> 30000 nM
O=c1c2ccccc2sn1Cc1ccccc1	enzyme activity	–	–	11300 nM
CN1CCN(C(=O)N(CCCCCCC(=O)NO)c2ccc(-c3ccc4cnn(C)c4c3)cc2)CC1	enzyme activity	fluorescence	–	2.62 nM
O=C(NO)c1ccc(Cn2sc3ccccc3c2=O)cc1	enzyme activity	–	–	3.2 nM
O=C(NO)c1ccc(CN2c3ccccc3Oc3ccc(C(=O)Nc4ccc(C(=O)c5ccccc5)cc4)cc32)cc1	enzyme activity	–	–	155 ± 11 nM
COC(=O)c1ccc(Cn2sc3ccccc3c2=O)cc1	enzyme activity	–	–	> 10000 nM
Cc1cc(CNCCCCCC(=O)NO)ccc1OCc1cccc(-c2ccccc2)c1C	–	–	–	67 nM
